{"data": "Experimental data pooled from the literature"}
{"Structure (SMILES)": "CC1(C)SC2C(NC(=O)C(NC(=O)C3=C(O)C4CCCN4C3=O)c3ccccc3)C(=O)N2C1C(=O)O (stereo not shown)", "organism": "Escherichia coli", "assay": "broth microdilution", "system": "Keio mutant JW5086-3", "setting": "18 h, ferrienterobactin permease gene", "MIC": "25 µg/mL"}
{"Structure (SMILES)": "CC(C)[C@H](NC(=O)[C@H](CCCNC(=N)N)NC(=O)[C@H](Cc1c[nH]c2ccccc12)NC(=O)[C@H](CCCNC(=N)N)NC(=O)[C@H](Cc1c[nH]c2ccccc12)NC(=O)[C@H](Cc1c[nH]c2ccccc12)NC(=O)[C@H](Cc1c[nH]c2ccccc12)NC(=O)[C@H](CCCNC(=N)N)NC(=O)[C@H](Cc1c[nH]c2ccccc12)NC(=O)[C@@H](N)CCCNC(=N)N)C(N)=O", "organism": "Candida albicans", "assay": "broth microdilution", "system": "CGMCC 2.209, RPMI 1640-MOPS", "setting": "48 h, 30 °C, with: MgCl2 1 mM", "MIC": "32 µM"}
{"Structure (SMILES)": "CC[C@H](C)CCCCC(=O)N[C@@H](CCN)C(=O)N[C@H](C(=O)N[C@@H](CCN)C(=O)N[C@H]1CCNC(=O)[C@H]([C@@H](C)O)NC(=O)[C@H](CCN)NC(=O)[C@H](CCN)NC(=O)[C@H](CC(C)C)NC(=O)[C@@H](Cc2ccccc2)NC(=O)[C@H](CCN)NC1=O)[C@@H](C)O", "organism": "Salmonella enterica serovar Typhimurium", "system": "DA6192", "setting": "24 h, 37 °C", "MIC": "2 µg/mL"}
{"Structure (SMILES)": "CC(C)C[C@H](NC(=O)[C@H](CCCNC(=N)N)NC(=O)[C@H](Cc1c[nH]c2ccccc12)NC(=O)[C@H](CCCNC(=N)N)NC(=O)[C@H](Cc1c[nH]c2ccccc12)NC(=O)[C@H](Cc1c[nH]c2ccccc12)NC(=O)[C@H](Cc1c[nH]c2ccccc12)NC(=O)[C@H](CCCNC(=N)N)NC(=O)[C@H](Cc1c[nH]c2ccccc12)NC(=O)[C@H](CCCNC(=N)N)NC(=O)CN)C(N)=O", "organism": "Candida albicans", "assay": "broth microdilution", "system": "alveolar fluid isolate, RPMI 1640-MOPS", "setting": "48 h, 30 °C", "MIC": "32 µM"}
{"Structure (SMILES)": "CC[C@H](C)[C@H](N)C(=O)N[C@@H](CCCNC(=N)N)C(=O)N[C@H](C(=O)N[C@@H](Cc1c[nH]c2ccccc12)C(=O)N[C@@H](Cc1ccccc1)C(=O)N[C@H](C(=O)N[C@@H](CCCCN)C(=O)N[C@H](C(=O)N[C@@H](CCCNC(=N)N)C(=O)N[C@@H](CCCCN)C(=O)N[C@@H](Cc1c[nH]c2ccccc12)C(=O)N[C@@H](CCCCN)C(=O)N[C@@H](C)C(=O)N[C@H](C(=O)N[C@@H](Cc1ccc(O)cc1)C(=O)N[C@@H](Cc1c[nH]cn1)C(=O)N[C@H](C(N)=O)[C@@H](C)O)[C@@H](C)CC)C(C)C)[C@@H](C)CC)C(C)C", "organism": "Enterobacter sp.", "assay": "broth dilution", "system": "KCTC 2625", "MIC": "50 µM"}
{"Structure (SMILES)": "CC[C@H](C)[C@H](NC(=O)[C@H](CCCCN)NC(=O)[C@H](CCCCN)NC(=O)[C@H](Cc1ccccc1)NC(=O)[C@@H](NC(=O)[C@@H](NC(=O)[C@H](CCCNC(=N)N)NC(=O)[C@H](Cc1ccccc1)NC(=O)[C@@H](NC(=O)[C@H](CCCCN)NC(=O)[C@H](CCCCN)NC(=O)[C@@H](N)CCSC)[C@@H](C)CC)C(C)C)[C@@H](C)CC)C(=O)N[C@@H](CC(C)C)C(=O)N[C@@H](CCCCN)C(=O)N[C@@H](CCCNC(=N)N)C(=O)N[C@@H](CC(C)C)C(=O)N[C@H](C(=O)N[C@H](C(=O)O)C(C)C)[C@@H](C)CC", "organism": "Staphylococcus aureus", "assay": "broth microdilution", "system": "ATCC 25923", "setting": "with: 2 mM CaCl2", "MIC": "8 µg/mL"}
{"Structure (SMILES)": "CC(C)C[C@@H](NC(=O)[C@H](C)NC(=O)CNC(=O)[C@@H](NC=O)C(C)C)C(=O)N[C@@H](C)C(=O)N[C@@H](C(=O)N[C@H](C(=O)N[C@@H](C(=O)N[C@@H](Cc1c[nH]c2ccccc12)C(=O)N[C@H](CC(C)C)C(=O)N[C@@H](Cc1cc2ccccc2[nH]1)C(=O)N[C@H](CC(C)C)C(=O)N[C@@H](Cc1c[nH]c2ccccc12)C(=O)N[C@H](CC(C)C)C(=O)N[C@@H](Cc1c[nH]c2ccccc12)C(=O)NCCO)C(C)C)C(C)C)C(C)C", "organism": "Listeria monocytogenes", "assay": "broth microdilution", "system": "10403S", "MIC": "2.1 µM"}
{"Structure (SMILES)": "CC1(C)SC2C(NC(=O)C(NC(=O)C3=C(O)CN(c4ccccc4)C3=O)c3ccccc3)C(=O)N2C1C(=O)O (stereo not shown)", "organism": "Escherichia coli", "assay": "broth microdilution", "system": "ATCC 35218, low-level TEM-1", "setting": "with: clavulanic acid 6 µg/mL", "MIC": "100 µg/mL"}
{"Structure (SMILES)": "N=C(N)NCCC[C@H](NC(=O)CN)C(=O)N[C@@H](Cc1c[nH]c2ccccc12)C(=O)N[C@@H](CCCNC(=N)N)C(=O)N[C@@H](Cc1c[nH]c2ccccc12)C(=O)N[C@@H](Cc1c[nH]c2ccccc12)C(=O)N[C@@H](Cc1c[nH]c2ccccc12)C(=O)N[C@@H](CCCNC(=N)N)C(=O)N[C@@H](Cc1c[nH]c2ccccc12)C(=O)N[C@@H](CCCNC(=N)N)C(=O)N[C@@H](Cc1c[nH]c2ccccc12)C(N)=O", "organism": "Candida albicans", "assay": "broth microdilution", "system": "CGMCC 2.209, RPMI 1640-MOPS", "setting": "48 h, 30 °C, with: KCl 4.5 mM", "MIC": "4 µM"}
{"Structure (SMILES)": "CC(C)(C)Oc1ccc(CC2NC(=O)C(C(=O)NC(C(=O)NC3C(=O)N4C3SC(C)(C)C4C(=O)O)c3ccccc3)=C2O)cc1 (stereo not shown)", "organism": "Escherichia coli", "assay": "broth microdilution", "system": "Keio mutant JW2142-1", "MIC": "25 µg/mL"}
{"Structure (SMILES)": "[O-][N+]1=C(c2ccc(Cl)cc2)C2=NCCN2c2ccccc21", "organism": "Fusobacterium nucleatum", "MIC": "0.06 to 0.125 µg/mL"}
{"Structure (SMILES)": "N=C(N)NCCC[C@H](NC(=O)[C@H](Cc1c[nH]c2ccccc12)NC(=O)[C@H](CCCNC(=N)N)NC(=O)[C@H](Cc1c[nH]c2ccccc12)NC(=O)[C@H](Cc1c[nH]c2ccccc12)NC(=O)[C@H](Cc1c[nH]c2ccccc12)NC(=O)[C@H](CCCNC(=N)N)NC(=O)[C@H](Cc1c[nH]c2ccccc12)NC(=O)[C@H](CCCNC(=N)N)NC(=O)CN)C(N)=O", "organism": "Candida albicans", "assay": "broth microdilution", "system": "56214, RPMI 1640-MOPS", "setting": "48 h, 30 °C", "MIC": "8 µM"}
{"Structure (SMILES)": "CC[C@H](C)[C@H](NC(=O)[C@@H](NC(=O)[C@H](Cc1ccccc1)NC(=O)CNC(=O)[C@H](CCC(N)=O)NC(=O)[C@H](CCCCN)NC(=O)[C@H](C)N)C(C)C)C(=O)N[C@@H](Cc1ccc(O)cc1)C(=O)N[C@@H](CCCNC(=N)N)C(=O)N[C@H](C(=O)N[C@@H](CCCNC(=N)N)C(=O)N[C@H](C(=O)N[C@@H](CCCNC(=N)N)C(=O)N[C@@H](CCCNC(=N)N)C(=O)NCC(=O)N[C@@H](CC(N)=O)C(=O)N[C@@H](CCCNC(=N)N)C(=O)N[C@@H](CCCCN)C(N)=O)C(C)C)C(C)C", "organism": "Enterobacter sp.", "assay": "broth dilution", "system": "KCTC 2625", "MIC": "3.1 µM"}
{"Structure (SMILES)": "N=C(N)NCCC[C@H](NC(=O)[C@H](Cc1c[nH]c2ccccc12)NC(=O)[C@H](CCCNC(=N)N)NC(=O)[C@H](Cc1c[nH]c2ccccc12)NC(=O)[C@H](Cc1c[nH]c2ccccc12)NC(=O)[C@H](Cc1c[nH]c2ccccc12)NC(=O)[C@H](CCCNC(=N)N)NC(=O)[C@H](Cc1c[nH]c2ccccc12)NC(=O)[C@@H](N)CCCNC(=N)N)C(=O)N[C@@H](Cc1ccccc1)C(N)=O", "organism": "Candida albicans", "assay": "broth microdilution", "system": "SP3931, RPMI 1640-MOPS", "setting": "48 h, 30 °C", "MIC": "8 µM"}
{"Structure (SMILES)": "CCN1CCN(C(=O)N[C@@H](C(=O)N[C@@H]2C(=O)N3[C@@H]2SC(C)(C)[C@@H]3C(=O)O)c2ccccc2)C(=O)C1=O", "organism": "Escherichia coli", "assay": "broth microdilution", "system": "ATCC 35218, low-level TEM-1", "setting": "with: clavulanic acid 6 µg/mL", "MIC": "100 µg/mL"}
{"Structure (SMILES)": "CC[C@H](C)[C@H](NC(=O)[C@H](CC(C)C)NC(=O)[C@H](CCCCN)NC(=O)[C@@H](NC(=O)[C@H](C)NC(=O)[C@H](CCC(=O)O)NC(=O)[C@H](Cc1c[nH]cn1)NC(=O)[C@@H](NC(=O)[C@H](CCCCN)NC(=O)[C@H](CCC(N)=O)NC(=O)[C@H](Cc1ccccc1)NC(=O)[C@@H](NC(=O)[C@H](CCCCN)NC(=O)[C@H](CCCCN)NC(=O)[C@H](CC(C)C)NC(=O)[C@H](C)N)C(C)C)[C@@H](C)CC)[C@@H](C)CC)C(N)=O", "organism": "Listeria monocytogenes", "assay": "CLSI broth microdilution", "system": "KCTC 3710", "setting": "18 h, 37 °C", "MIC": "16 µM"}
{"Structure (SMILES)": "CC1(C)SC2C(NC(=O)C(NC(=O)C3=C(O)CNC3=O)c3ccccc3)C(=O)N2C1C(=O)O (stereo not shown)", "organism": "Escherichia coli", "assay": "broth microdilution", "system": "JW0790-2 fiu deletion mutant", "setting": "ferric iron uptake gene", "MIC": "50 µg/mL"}
{"Structure (SMILES)": "CC(C)C[C@H](NC(=O)[C@H](CCCNC(=N)N)NC(=O)[C@H](Cc1c[nH]c2ccccc12)NC(=O)[C@H](CCCNC(=N)N)NC(=O)[C@H](Cc1c[nH]c2ccccc12)NC(=O)[C@H](Cc1c[nH]c2ccccc12)NC(=O)[C@H](Cc1c[nH]c2ccccc12)NC(=O)[C@H](CCCNC(=N)N)NC(=O)[C@H](Cc1c[nH]c2ccccc12)NC(=O)[C@@H](N)CCCNC(=N)N)C(N)=O", "organism": "Candida albicans", "assay": "broth microdilution", "system": "SP3931, RPMI 1640-MOPS", "setting": "48 h, 30 °C", "MIC": "8 µM"}
{"Structure (SMILES)": "CN1CC(O)=C(C(=O)NC(C(=O)NC2C(=O)N3C2SC(C)(C)C3C(=O)O)c2ccccc2)C1=O (stereo not shown)", "organism": "Escherichia coli", "assay": "broth microdilution", "system": "ATCC 35218, low-level TEM-1", "setting": "no clavulanic acid", "MIC": "> 200 µg/mL"}
{"Structure (SMILES)": "N=C(N)NCCC[C@H](NC(=O)CCCCCNC(=O)[C@H](CCCNC(=N)N)NC(=O)[C@H](CCCNC(=N)N)NC(=O)CCCCCNC(=O)[C@H](CCCNC(=N)N)NC(=O)[C@H](CCCNC(=N)N)NC(=O)CCCCCNC(=O)[C@H](CCCNC(=N)N)NC(=O)[C@H](CCCNC(=N)N)NC(=O)CCCCCNC(=O)[C@@H](N)CCCNC(=N)N)C(=O)NCCCCCC(=O)NCCC(=O)O", "organism": "Escherichia coli", "assay": "broth microdilution", "system": "BAA 41, resistant, Mueller-Hinton broth", "MIC": "48 µM"}
{"Structure (SMILES)": "CC[C@H](C)[C@H](N)C(=O)N[C@@H](CCCNC(=N)N)C(=O)N[C@H](C(=O)N[C@@H](Cc1c[nH]c2ccccc12)C(=O)N[C@@H](Cc1c[nH]c2ccccc12)C(=O)N[C@@H](CCCCN)C(=O)N[C@H](C(=O)N[C@H](C(=O)N[C@@H](CCCNC(=N)N)C(=O)N[C@@H](CCCCN)C(=O)N[C@@H](Cc1c[nH]c2ccccc12)C(=O)N[C@@H](CCCCN)C(=O)N[C@@H](C)C(=O)N[C@H](C(=O)N[C@@H](Cc1c[nH]c2ccccc12)C(=O)N[C@@H](Cc1c[nH]cn1)C(N)=O)[C@@H](C)CC)C(C)C)[C@@H](C)CC)C(C)C", "organism": "Enterobacter sp.", "assay": "broth dilution", "system": "KCTC 2625", "MIC": "25 µM"}
{"Structure (SMILES)": "CC(C)C1NC(=O)C(C(=O)NC(C(=O)NC2C(=O)N3C2SC(C)(C)C3C(=O)O)c2ccccc2)=C1O (stereo not shown)", "organism": "Escherichia coli", "assay": "broth microdilution", "system": "Keio mutant JW5086-3", "setting": "18 h, ferrienterobactin permease gene", "MIC": "25 µg/mL"}
{"note": "Excerpt of the above:"}
{"Structure (SMILES)": "CC1(C)SC2C(NC(=O)C(NC(=O)C3=C(O)CNC3=O)c3ccccc3)C(=O)N2C1C(=O)O (stereo not shown)", "organism": "Escherichia coli", "assay": "broth microdilution", "system": "JW0790-2 fiu deletion mutant", "setting": "ferric iron uptake gene", "MIC": "50 µg/mL"}
{"Structure (SMILES)": "CC[C@H](C)[C@H](N)C(=O)N[C@@H](CCCNC(=N)N)C(=O)N[C@H](C(=O)N[C@@H](Cc1c[nH]c2ccccc12)C(=O)N[C@@H](Cc1c[nH]c2ccccc12)C(=O)N[C@@H](CCCCN)C(=O)N[C@H](C(=O)N[C@H](C(=O)N[C@@H](CCCNC(=N)N)C(=O)N[C@@H](CCCCN)C(=O)N[C@@H](Cc1c[nH]c2ccccc12)C(=O)N[C@@H](CCCCN)C(=O)N[C@@H](C)C(=O)N[C@H](C(=O)N[C@@H](Cc1c[nH]c2ccccc12)C(=O)N[C@@H](Cc1c[nH]cn1)C(N)=O)[C@@H](C)CC)C(C)C)[C@@H](C)CC)C(C)C", "organism": "Enterobacter sp.", "assay": "broth dilution", "system": "KCTC 2625", "MIC": "25 µM"}
